Measured values from different studies.
Numbered parts are unrelated; each lists some results of a single study. Substitutions count along the parent as printed.
Chain of UniProt P03372 (whole entry, looked up): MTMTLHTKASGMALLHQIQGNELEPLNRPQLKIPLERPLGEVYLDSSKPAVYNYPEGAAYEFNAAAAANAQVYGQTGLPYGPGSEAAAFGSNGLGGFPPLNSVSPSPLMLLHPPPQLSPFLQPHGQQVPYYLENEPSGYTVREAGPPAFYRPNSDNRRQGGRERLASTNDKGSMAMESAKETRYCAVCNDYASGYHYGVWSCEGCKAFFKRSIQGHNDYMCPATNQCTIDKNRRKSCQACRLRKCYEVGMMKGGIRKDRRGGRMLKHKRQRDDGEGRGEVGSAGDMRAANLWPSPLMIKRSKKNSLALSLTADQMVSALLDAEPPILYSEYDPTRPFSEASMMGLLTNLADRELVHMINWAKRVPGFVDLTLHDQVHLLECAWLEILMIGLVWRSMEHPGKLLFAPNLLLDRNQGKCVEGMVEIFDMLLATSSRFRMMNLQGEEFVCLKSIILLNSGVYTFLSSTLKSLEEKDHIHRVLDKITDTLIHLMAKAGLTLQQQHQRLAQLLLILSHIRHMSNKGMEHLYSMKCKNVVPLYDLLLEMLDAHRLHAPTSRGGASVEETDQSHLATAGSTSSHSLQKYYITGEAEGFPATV

Set 1
Target: OGT, full length, His-tagged (human)
Method: phage display, sequencing
Medium: in vitro
Concentration: 1 µg OGT
Notes: single substitutions, 15-mer displayed peptide, unchanged parent 6.14
Baseline: input library
Direction: higher = stronger binding
Parent: peptide; VAYPNSYMPKYQIST
Substitution	fold enrichment
VAYPNPYMPKYQIST [S6P]	14.1 fold
VAYPNIYMPKYQIST [S6I]	11.3 fold
QAYPNSYMPKYQIST [V1Q]	5.55 fold
VAYPNSYMPKYQLST [I13L]	0.93 fold
VAYPNSYMPKYQPST [I13P]	0.314 fold
VAYPNSYMPKIQIST [Y11I]	2.32 fold
VAYPNGYMPKYQIST [S6G]	0.145 fold
VAYPNSYMPKYQISA [T15A]	2.88 fold

Set 2
Target: RING finger protein unkempt homolog, zinc fingers 1-6, GST-SBP tag (UNK, Homo sapiens, UniProt Q9C0B0, residues 30-357)
Method: RNA Bind-n-Seq
Form: RNA
Medium: in vitro
Concentration: not given
Notes: RNA with constant flanks, human-mouse chimeric sites, ends assumed
Baseline: input RNA pool
Direction: higher = stronger binding
All sequences stand within: GGGAGUUCUACAGUCCGACGAUC … CAACAGAGGAUUGAGCAUCA
Residues (chain): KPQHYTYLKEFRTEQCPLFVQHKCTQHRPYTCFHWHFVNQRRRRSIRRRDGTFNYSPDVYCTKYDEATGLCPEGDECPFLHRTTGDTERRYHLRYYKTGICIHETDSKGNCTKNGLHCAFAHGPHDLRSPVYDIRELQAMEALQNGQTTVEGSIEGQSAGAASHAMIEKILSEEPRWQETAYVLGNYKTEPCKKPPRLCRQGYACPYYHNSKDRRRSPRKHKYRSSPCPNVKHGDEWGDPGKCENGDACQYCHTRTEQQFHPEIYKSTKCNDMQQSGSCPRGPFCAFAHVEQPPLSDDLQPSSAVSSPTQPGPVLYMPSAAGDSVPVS
Oligonucleotide	bound/input enrichment
AAGCAACGCAAACUUGAAACAAUUCGUUAUCUUGCAGCCUCAGUGUUCACUUGCUUGGCGAUAGCAUUGGGGUUUUAUAGGUUCUGGAAGGAGAACUGACGAUGAUGUCCUGCUGUGUGC	0.102 ratio
GAAUCCUCCCGUGCAAAAUUUUGCAACACCAAGCUCACAGCAGCAGCAUCUUAGUCACAGUAGGGUAGUUUUGGGGCAAUAUUGCCAGGGUUUUAUUCACAUGCAGGUUUGGAAAAUGUA	4.68 ratio
CGGAGCCCUCCUCUCCCACAGGCCCAAGAUAUAACCCACCAGUGCCUUUUGUCUUCCUGUCAGCUCUGUCAAUCACGGCCCUGCCUUCACGCCCACACCAAGUGCCCAAAGUGGGGAGGG	0.378 ratio
AAAUCGUGUGUGUCCAAUAUUGAAAGUACUUUAUCUGCACUCCAGUAUGUAAGCAGUAUAGUAGUUUCUUUAGAGAAUAGGUCAGCCAUUGUGAAGUACAAUGCAAGCUUAGUCACUCCA	2.75 ratio
UCCUUGGACCCCAGUCAUAUAGGUGACCUGCAAAAAGCAGACACCAGUAGUCAAGGUGCUUUAGUGUUUCUCUCAAAGGACUACGAAAUAGAAAGUCAAAAUCCCCUGGCCUCUCCUACG	1.97 ratio
UGACAAGGGCACUGCAGAGCCAUGCCUUUCCUUGACAUACAGAAAAAGCUGGGCAUCAGCCUGGACCGAUGGUUGACGUUCCUAAGCGCAGAACAGCCCUAUAAGAAGGCUGGUCGAUGC	0.095 ratio
ACACAAUAUGAGACCAACAGCAUGGACUUCAAAGUCGGGGCAGAUGGGACAGUCUUCGCCACUAGGGAGCUGCAGGUCCCCUCCGAGCAGGUGGCGUUCACGGUGACUGCAUGGGACAGC	0.203 ratio
AGAAAGCAAAACUUGGAACGAUUUAAGAAAGGAGACGUAAGAUUCUUGAUUUGCACAGAUGUAGCUGCUAGAGGGAUUGAUAUCCACGGUGUUCCUUAUGUGAUCAACGUCACCCUGCCU	0.188 ratio

Further values, each from its own experiment
P1: PafA, mature enzyme, eGFP fusion (Elizabethkingia meningoseptica, UniProt Q9KJX5); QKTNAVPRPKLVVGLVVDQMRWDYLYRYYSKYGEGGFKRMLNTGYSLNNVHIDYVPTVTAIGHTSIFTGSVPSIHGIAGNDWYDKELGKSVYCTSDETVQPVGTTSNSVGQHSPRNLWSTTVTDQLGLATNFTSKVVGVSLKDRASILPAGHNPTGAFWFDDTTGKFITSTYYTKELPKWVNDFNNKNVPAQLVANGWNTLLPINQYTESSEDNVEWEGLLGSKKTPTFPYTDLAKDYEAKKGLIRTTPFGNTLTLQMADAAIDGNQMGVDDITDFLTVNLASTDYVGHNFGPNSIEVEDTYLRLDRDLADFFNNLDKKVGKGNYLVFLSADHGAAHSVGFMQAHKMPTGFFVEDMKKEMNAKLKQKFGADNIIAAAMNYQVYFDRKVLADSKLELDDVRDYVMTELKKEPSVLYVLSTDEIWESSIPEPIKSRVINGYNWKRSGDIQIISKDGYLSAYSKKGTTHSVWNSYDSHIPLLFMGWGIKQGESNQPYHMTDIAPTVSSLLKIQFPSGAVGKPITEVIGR
Molecule	target	test	test system	conditions	how to read	endpoint	result
P1 K346V	vanadate, free oxyanion	microfluidic competitive inhibition	in vitro, cell-free expressed	not given, derived from inhibition constants, unchanged parent 676 nM	lower = stronger binding	oxyanion analog dissociation constant	782 nM
CNC(=O)c1ccc(-c2cnn3ccc(C(=O)N(C)c4ccc(Cl)c(C(=O)O)c4)cc23)cc1	Estrogen receptor (ESR1, Homo sapiens, UniProt P03372)	cell-free assay				IC50	> 30 µM
P1 D260V	vanadate, free oxyanion	microfluidic competitive inhibition	in vitro, cell-free expressed	not given, derived from inhibition constants, unchanged parent 676 nM	lower = stronger binding	oxyanion analog dissociation constant	876 nM

For quick reference, copied from above (set 1):
Substitution	fold enrichment
VAYPNSYMPKYQISA [T15A]	2.88 fold
VAYPNSYMPKYQPST [I13P]	0.314 fold
